# Measurements pooled from the literature.
# Parts stem from different laboratories: compare values within a part only. Substitutions count along the parent as printed.

# Sample 1 — technique: DHFR PCA, deep sequencing; matrix: yeast; with: (+)-ABA 0.11 µM; relative to: wild-type fitted maximum; reading: higher = stronger binding
# Target: ABI1, truncated, D143A, DHFR fusion (Arabidopsis thaliana)
# Setting: methotrexate growth selection, single substitutions
# Starting sequence: PYL1, truncated, DHFR fusion (Arabidopsis thaliana); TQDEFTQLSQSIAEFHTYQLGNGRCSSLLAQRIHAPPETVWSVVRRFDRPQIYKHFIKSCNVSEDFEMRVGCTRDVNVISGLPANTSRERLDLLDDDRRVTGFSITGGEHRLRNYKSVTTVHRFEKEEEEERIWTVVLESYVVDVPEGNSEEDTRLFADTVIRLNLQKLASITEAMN
Change,relative binding score [%]
N177H,26.2
E109H,3.24
N61G,1.03
S11R,2.25
L94S,0.189
D3P,25.4

# Sample 2 — technique: RNA Bind-n-Seq; molecule type: RNA; matrix: in vitro; tested at: 365 nM; relative to: no-protein control; reading: higher = stronger binding
# Target: RNA binding protein fox-1 homolog 2, RRM domain, GST-SBP tag (RBFOX2, Homo sapiens, UniProt O43251-10, residues 100-194)
# Setting: natural RNA segment, single round, ends assumed
# Constant ends, left off below: GGGAGUUCUACAGUCCGACGAUC … UGGAAUUCUCGGGUGCCAA
# Target sequence (chain): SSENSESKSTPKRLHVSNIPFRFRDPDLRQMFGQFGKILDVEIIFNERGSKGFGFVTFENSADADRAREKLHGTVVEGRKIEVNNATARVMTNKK
Strand,RBNS enrichment (R)
GAUUUUUCUAAGAUGUUGAGUAUUGUGUAAGUAAGCUUUGAGUCUUUGAACCUGAUUGAAAUGCAAAGCAAGGGUGACUCAUUGUUAGGAGAAGUAAAGGCCACGGAAGG,3.43
CUAGGUUAUACAGAUGCCAUGCUCCACACCACGAGCAGUGUACAAAUCUGGCUGCCCGUUUACUUUCUGAGCAAGCACUGGAGUCCACUCCGACCUUUUUCUUUGAACAU,0.252
CAUCAGGCCCUUAAUUAUGGCAGAGAGGUAAUCAGCUGGCUACAGCCAGGAUGCUCAGCAUUGGAAGACUGGUGUGUGAUGGCUGCUACCACCUCUCCCUGGACAGCAGC,0.594
UUACACUGAUCUUGUUCCACUGAUUACUCUCUCUGACGAGUCCAUCACCUGCAACUUAAAUGAACAAGCUUACAUCCCAUUUUGAGUGAAGAUUUUGAGGUUUUUAAUUU,0.634
AUGAGCCCCUCAUUUGCACACAGUGACCACAUGAGCUUCCACUUACCUAACAACAGCCAUUUCAGGCCCUCAAUAGUGCUUGCUUCAUCUUAGCCUGGCCCAGCCUGGGC,0.488

# Sample 3 — target: CCNE2, cyclin fold, Cln2 fusion (human); technique: yeast growth competition, sequencing; matrix: yeast; setting: strong parent motif; relative to: not given; reading: higher = stronger binding
# Starting sequence: GMNC docking peptide (human); KNAKRNLSSEFAN; partner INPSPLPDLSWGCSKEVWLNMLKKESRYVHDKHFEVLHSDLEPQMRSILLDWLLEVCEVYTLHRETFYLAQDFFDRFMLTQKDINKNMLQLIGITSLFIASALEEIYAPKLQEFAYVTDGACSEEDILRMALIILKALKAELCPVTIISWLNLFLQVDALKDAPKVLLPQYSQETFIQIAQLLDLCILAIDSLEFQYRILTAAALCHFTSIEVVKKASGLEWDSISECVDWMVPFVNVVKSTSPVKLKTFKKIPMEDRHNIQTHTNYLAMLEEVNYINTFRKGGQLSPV
Change,normalised enrichment score
K4N,0.512
L7R,0.409
S8K,0.784
A12R,1.43
S8W,1.09

# Single results of other studies
Molecule,target,test,test system,setting,how to read,measurement,value
"PhoQ, residues 284 288 289 292 302 303 AGGCYF","PhoP, residues 12 14 15 18 19 QYCSL (Escherichia coli, UniProt P23836)","Sort-seq, refers to: YFP reporter",E. coli,"PhoQ-PhoP variant library, with: 10 µM Mg2+","relative to: high Mg2+ state, higher = stronger signaling",fold induction,9.21

# Repeated from above (sample 3):
Change,normalised enrichment score
S8K,0.784
A12R,1.43
S8W,1.09
